Results from different studies.
Compare with care: the assays were run in different laboratories. ± marks the error that the study gave.

The EC50 of `CCCCCC(O)C=CC1OC2OC(C1CC=CCCCC(=O)O)C2(F)F` (stereo not drawn) is reported as 0.501 µM (platelet aggregation, agonist, light transmission aggregometry; human platelet-rich plasma).
`Cc1cccc(C)c1NC(=O)c1cc(-c2cccc(O)c2)on1` gave an EC50 of greater than 100 µM (membrane potential, rhodamine uptake; isolated mouse liver mitochondria).
For `CCCCC[C@H](O)/C=C/[C@@H]1[C@@H](C/C=C\CCCC(=O)O)[C@H]2CO[C@@H]1C2`, the EC50 was 1.41 µM (platelet aggregation, agonist, light transmission aggregometry; human platelet-rich plasma).
With `Cl.[Cl][Ru-4]123([n+]4ccccc4-c4cccc([n+]41)-c1cccc[n+]12)[n+]1ccc(-c2ccccc2)c2ccc4c(-c5ccccc5)cc[n+]3c4c21` the EC50 was 21.9 µM (DNA damage, gel electrophoresis; pUC19 plasmid DNA; 16 h, 37 °C).
For `COC(=O)C=CCCC(NC(=O)c1ccncc1C(=O)O)C(=O)NC(C(=O)N1CC(=O)CC1C(=O)NC(C(=O)NC(C(N)=O)C1CCCCC1)C1CCCCC1)C(C)(C)C` (stereo not drawn), the EC50 was 1.7 ± 0.2 µM (maximum clot firmness reduction, rotational thromboelastometry; human whole blood; together with: 0.02 µg/mL t-PA).
For `Cc1ccc(Cl)cc1NC(=O)c1cc(-c2cccc(O)c2)on1`, the EC50 was greater than 100 µM (membrane potential, rhodamine uptake; isolated mouse liver mitochondria).
`Cc1ccc2nc(-c3ccc(N)cc3)sc2c1S(=O)(=O)O` has an EC50 of greater than 100 µM (DNA binding, SYBR Green I displacement; DNA substrate).
`CC(C)C1=C(OC(=O)CCc2ccccc2)C(=O)C2=C(C=C[C@H]3C(C)(C)CCC[C@]23C)C1=O` has an EC50 of 457 µM (total antioxidant capacity, phosphomolybdenum method).
`Cc1ccc2nc(-c3ccc4nc(-c5ccc6nc(-c7ccc8nc(-c9ccc(N)cc9)sc8c7)sc6c5)sc4c3)sc2c1S(=O)(=O)O` has an EC50 of 15 ± 8 µM (DNA binding, SYBR Green I displacement; DNA substrate).
The EC50 of `CC(C)C1=C(OC(=O)C(C)(C)C)C(=O)C2=C(C=C[C@H]3C(C)(C)CCC[C@]23C)C1=O` is reported as 480 µM (total antioxidant capacity, phosphomolybdenum method).
`N.N.[Cl][Pt+].c1ccc2c(c1)cnc1ccccc12` gave an EC50 of 8.8 µM (DNA damage, gel electrophoresis; pUC19 plasmid DNA; 16 h, 37 °C).
`CC(=O)Nc1ccc(C(N)=O)c(F)c1` has an EC50 of greater than 37.5 µM (aPTT clotting time; human plasma; 50% prolongation).

A few entries again:
The EC50 of `CC(C)C1=C(OC(=O)C(C)(C)C)C(=O)C2=C(C=C[C@H]3C(C)(C)CCC[C@]23C)C1=O` is reported as 480 µM (total antioxidant capacity, phosphomolybdenum method).
`N.N.[Cl][Pt+].c1ccc2c(c1)cnc1ccccc12` gave an EC50 of 8.8 µM (DNA damage, gel electrophoresis; pUC19 plasmid DNA; 16 h, 37 °C).
